Experimental data collected from several papers.
UniProt Q15759, sequence (whole entry, looked up): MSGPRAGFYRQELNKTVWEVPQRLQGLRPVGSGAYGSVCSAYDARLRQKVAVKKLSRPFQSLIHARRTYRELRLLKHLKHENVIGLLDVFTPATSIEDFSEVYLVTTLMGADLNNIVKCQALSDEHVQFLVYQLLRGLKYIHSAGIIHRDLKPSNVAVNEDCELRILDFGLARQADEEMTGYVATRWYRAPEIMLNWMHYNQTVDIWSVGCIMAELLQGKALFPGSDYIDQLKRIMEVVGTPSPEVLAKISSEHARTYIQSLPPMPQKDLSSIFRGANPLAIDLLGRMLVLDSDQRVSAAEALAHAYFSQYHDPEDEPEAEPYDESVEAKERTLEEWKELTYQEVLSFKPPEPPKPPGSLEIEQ
UniProt P32239, sequence (whole entry, looked up): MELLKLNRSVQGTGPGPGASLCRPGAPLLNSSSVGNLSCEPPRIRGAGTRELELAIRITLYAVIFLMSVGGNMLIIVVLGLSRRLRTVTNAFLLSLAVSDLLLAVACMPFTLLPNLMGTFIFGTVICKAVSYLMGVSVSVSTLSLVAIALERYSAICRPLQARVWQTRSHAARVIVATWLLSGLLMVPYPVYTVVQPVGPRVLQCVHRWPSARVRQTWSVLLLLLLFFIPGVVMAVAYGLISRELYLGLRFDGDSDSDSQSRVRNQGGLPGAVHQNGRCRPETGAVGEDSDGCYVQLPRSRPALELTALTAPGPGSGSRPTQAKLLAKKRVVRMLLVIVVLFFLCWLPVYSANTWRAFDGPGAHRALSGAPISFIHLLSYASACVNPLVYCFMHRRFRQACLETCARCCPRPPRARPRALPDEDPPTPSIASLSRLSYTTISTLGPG
UniProt P10768, sequence (whole entry, looked up): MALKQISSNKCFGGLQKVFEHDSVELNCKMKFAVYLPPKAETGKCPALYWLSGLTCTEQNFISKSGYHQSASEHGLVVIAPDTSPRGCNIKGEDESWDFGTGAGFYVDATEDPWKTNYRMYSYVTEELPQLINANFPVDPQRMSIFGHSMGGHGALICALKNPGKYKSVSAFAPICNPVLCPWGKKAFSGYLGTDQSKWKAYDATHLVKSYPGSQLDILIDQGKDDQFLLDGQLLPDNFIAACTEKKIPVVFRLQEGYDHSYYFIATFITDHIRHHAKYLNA
UniProt Q15375, sequence (whole entry, looked up): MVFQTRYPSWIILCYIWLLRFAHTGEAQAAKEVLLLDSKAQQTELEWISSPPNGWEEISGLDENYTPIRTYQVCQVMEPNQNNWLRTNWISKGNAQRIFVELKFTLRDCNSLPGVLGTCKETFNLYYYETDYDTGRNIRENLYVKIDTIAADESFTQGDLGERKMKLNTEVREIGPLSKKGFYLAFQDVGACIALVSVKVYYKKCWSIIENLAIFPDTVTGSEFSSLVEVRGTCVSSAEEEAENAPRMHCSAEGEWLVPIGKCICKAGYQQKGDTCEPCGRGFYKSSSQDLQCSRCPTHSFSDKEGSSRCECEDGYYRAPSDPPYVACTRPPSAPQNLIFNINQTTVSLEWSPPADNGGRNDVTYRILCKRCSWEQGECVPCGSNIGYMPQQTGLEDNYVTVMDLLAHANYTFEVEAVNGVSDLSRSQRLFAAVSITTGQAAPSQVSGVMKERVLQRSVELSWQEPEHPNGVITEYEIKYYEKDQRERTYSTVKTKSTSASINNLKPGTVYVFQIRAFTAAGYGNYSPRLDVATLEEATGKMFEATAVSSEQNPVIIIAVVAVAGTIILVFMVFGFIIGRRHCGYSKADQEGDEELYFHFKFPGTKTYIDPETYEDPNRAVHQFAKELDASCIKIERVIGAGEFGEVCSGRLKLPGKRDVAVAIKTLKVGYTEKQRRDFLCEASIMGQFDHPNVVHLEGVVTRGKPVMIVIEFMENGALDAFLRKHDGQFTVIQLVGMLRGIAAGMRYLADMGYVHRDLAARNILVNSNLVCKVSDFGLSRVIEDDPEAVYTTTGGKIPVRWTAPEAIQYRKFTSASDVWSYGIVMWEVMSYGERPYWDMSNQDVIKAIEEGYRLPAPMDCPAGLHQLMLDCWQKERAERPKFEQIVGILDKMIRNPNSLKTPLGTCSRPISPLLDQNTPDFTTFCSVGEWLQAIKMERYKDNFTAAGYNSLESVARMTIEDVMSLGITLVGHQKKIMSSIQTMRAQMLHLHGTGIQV
UniProt P46663, sequence (whole entry, looked up): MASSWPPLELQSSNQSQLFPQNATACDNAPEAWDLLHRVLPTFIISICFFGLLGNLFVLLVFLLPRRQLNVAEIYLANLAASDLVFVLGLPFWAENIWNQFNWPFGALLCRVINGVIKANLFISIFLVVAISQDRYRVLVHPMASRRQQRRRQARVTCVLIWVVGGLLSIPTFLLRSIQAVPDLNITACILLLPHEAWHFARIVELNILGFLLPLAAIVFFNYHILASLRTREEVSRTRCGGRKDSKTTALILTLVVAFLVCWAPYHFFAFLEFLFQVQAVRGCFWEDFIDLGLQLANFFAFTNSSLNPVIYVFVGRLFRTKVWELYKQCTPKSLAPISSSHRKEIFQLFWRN
UniProt Q00535, sequence (whole entry, looked up): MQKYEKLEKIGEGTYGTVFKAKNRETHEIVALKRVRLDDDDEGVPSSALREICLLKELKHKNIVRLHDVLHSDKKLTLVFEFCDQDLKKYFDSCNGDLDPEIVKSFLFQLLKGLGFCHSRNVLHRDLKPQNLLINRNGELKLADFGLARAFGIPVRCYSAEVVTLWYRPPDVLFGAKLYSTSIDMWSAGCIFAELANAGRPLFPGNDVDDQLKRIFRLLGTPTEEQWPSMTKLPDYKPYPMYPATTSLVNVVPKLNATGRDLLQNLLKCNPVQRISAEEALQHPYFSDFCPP
UniProt Q16512, sequence (whole entry, looked up): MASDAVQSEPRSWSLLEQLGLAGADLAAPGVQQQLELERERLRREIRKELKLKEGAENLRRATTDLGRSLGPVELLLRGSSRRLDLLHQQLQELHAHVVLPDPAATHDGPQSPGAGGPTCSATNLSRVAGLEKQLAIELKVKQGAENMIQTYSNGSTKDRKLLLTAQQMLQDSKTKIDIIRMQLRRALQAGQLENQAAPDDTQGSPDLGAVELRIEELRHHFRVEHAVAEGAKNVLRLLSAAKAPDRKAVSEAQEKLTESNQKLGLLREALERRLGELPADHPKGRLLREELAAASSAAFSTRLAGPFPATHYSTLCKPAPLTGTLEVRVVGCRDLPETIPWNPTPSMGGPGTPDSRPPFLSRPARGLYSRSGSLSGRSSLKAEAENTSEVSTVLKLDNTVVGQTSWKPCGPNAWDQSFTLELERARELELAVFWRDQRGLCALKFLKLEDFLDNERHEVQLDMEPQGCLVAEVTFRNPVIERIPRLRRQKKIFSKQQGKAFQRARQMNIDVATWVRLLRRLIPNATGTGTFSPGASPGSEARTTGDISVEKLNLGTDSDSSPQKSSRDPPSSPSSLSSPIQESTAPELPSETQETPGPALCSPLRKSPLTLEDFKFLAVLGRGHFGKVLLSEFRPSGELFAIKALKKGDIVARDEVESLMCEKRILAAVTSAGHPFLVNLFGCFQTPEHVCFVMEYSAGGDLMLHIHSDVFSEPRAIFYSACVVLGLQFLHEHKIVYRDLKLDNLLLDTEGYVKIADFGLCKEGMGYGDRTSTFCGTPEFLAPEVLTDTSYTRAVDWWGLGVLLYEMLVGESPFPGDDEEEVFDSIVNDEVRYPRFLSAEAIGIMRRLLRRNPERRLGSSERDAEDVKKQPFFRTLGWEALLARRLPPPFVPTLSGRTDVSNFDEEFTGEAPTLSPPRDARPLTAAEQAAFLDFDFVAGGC
UniProt P32198, sequence (whole entry, looked up): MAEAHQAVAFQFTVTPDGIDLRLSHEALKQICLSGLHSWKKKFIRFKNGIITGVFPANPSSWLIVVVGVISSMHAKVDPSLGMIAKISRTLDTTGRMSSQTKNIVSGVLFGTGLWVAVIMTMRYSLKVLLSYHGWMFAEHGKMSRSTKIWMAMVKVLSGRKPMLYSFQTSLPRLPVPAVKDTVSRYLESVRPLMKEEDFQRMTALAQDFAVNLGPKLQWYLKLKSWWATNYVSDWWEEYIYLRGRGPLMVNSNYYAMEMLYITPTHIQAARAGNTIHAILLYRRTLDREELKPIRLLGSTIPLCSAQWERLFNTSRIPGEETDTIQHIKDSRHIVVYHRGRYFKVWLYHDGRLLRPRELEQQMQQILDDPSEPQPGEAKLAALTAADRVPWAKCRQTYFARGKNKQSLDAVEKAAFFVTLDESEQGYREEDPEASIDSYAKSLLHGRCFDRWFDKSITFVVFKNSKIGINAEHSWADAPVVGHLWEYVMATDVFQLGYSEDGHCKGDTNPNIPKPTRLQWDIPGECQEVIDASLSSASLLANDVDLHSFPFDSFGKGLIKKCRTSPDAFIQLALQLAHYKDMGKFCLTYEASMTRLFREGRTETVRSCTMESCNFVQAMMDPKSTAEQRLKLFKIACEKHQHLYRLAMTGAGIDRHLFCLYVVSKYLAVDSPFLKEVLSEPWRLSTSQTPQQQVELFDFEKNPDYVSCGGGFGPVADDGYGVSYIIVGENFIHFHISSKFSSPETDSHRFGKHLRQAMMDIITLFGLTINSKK

| Compound | tested on | test | test system | setting | scale | measurement | result |
| --- | --- | --- | --- | --- | --- | --- | --- |
| CN(C(=O)n1cnc(-c2ccc[n+]([O-])c2)c1)C1CCCCC1 | Carnitine O-palmitoyltransferase 1, liver isoform (Rattus norvegicus, UniProt P32198) | enzyme activity |  | 10 µM |  | inhibition | -12% |
| CN(CCN1CCC(OC(=O)Nc2ccccc2-c2ccccc2)CC1)C(=O)c1ccc(CN2CCC(C(N)=O)CC2)cc1 | rat PCP site | radioligand binding |  | 1 µM, added: [3H]TCP 5.0 nM |  | inhibition | -11% |
| CO[C@H]1C[C@@H]2CC[C@@H](C)[C@@](O)(O2)C(=O)C(=O)N2CCCC[C@H]2C(=O)O[C@H]([C@H](C)C[C@@H]2CC[C@@H](OC(=O)NCCOCCOCCOCCOCCOCCOCCOCCOCCC(=O)N3CCc4cc(Cn5nc(-c6ccc7oc(N)nc7c6)c6c(N)ncnc65)ccc4C3)[C@H](OC)C2)C[C@@H](O)[C@H](C)/C=C(\C)[C@@H](O)[C@@H](OC)C(=O)[C@H](C)C[C@H](C)/C=C/C=C/C=C/1C |  | phase 1 dose escalation, item: rash | advanced solid tumour patients | intravenous, 6 mg weekly, any grade |  | TRAE incidence | 33.3% |
| CCCC1O[C@@H]2C[C@H]3[C@@H]4CCC5=CC(=O)C=C[C@]5(C)[C@H]4[C@@H](O)C[C@]3(C)[C@]2(C(=O)CO)O1 (stereo partly drawn) | Plasmodium falciparum |  | HB3 |  |  | IC50 | 3.98 µM |
| CN1CCN(c2cc(-c3ccncc3)c(-c3ccc4ccccc4c3)nn2)CC1 | Gastrin/cholecystokinin type B receptor (CCKBR, Homo sapiens, UniProt P32239) | antagonist, FLIPR |  | 10 µM |  | inhibition | -3.6% |
| COCc1c(-c2cc3cc(C)cc(OC)c3s2)c2c(N)ncnn2c1CN1CCNC(=O)C1 | GABAB receptor | radioligand binding |  | 10 µM |  | inhibition | 0% |
| COc1ccc(N2C(=O)N(c3c(C)cccc3Cl)Cc3cnc(Nc4ccc(C5CCN(C)CC5)cc4OC)nc32)nc1 | Ephrin type-A receptor 7 (EPHA7, Homo sapiens, UniProt Q15375) | kinase activity |  | 0.5 µM |  | inhibition | 5.52% |
| COc1cc(Nc2ncc(F)c(Nc3ccc4c(n3)NC(=O)C(C)(C)O4)n2)cc(OC)c1OC | Serine/threonine-protein kinase N1 (PKN1, Homo sapiens, UniProt Q16512) | KINOMEscan |  | 10 µM |  | inhibition | 96% |
| Cc1ncc(C)n2nc(/C=C/c3nc(N4CCCC4)cc(N4CCOCC4)n3)nc12 | sodium channel site 2 | radioligand binding |  | 10 µM |  | inhibition | 4% |
| CC(C)N1CCC[C@H]1CNC(=O)c1cn(C2CCCC2)c(=O)c2c1c1ccccc1n2C | thyroid hormone receptor (rat) | radioligand binding |  | 10 µM |  | inhibition | 7% |
| FC(F)(F)c1cccc(Nc2nc(NCCOc3ccccc3)nc3[nH]cnc23)c1 | Cyclin-dependent kinase 5, with p25 (CDK5, Homo sapiens, UniProt Q00535) | Z'-LYTE or Adapta |  | 5 µM |  | inhibition | 10% |
| C[C@H]1CN(c2n[nH]c3nc(N[C@H]4CC[C@H](NS(=O)(=O)CCC(F)(F)F)CC4)ncc23)CCO1 | Mitogen-activated protein kinase 11 (MAPK11, Homo sapiens, UniProt Q15759) | competitor, Kinobeads competition | HEK293, K562, placenta extract | 0.032 µM | baseline: vehicle | relative abundance | 0.89 |
| CCN(CC)CCOCCOC(=O)C1(c2ccccc2)CCCC1 | Plasmodium falciparum |  | Dd2 |  |  | IC50 | 3.16 µM |
| O=C(Nc1cnccc1Cl)N1CCN(Cc2ccc3c(c2)OC(F)(F)O3)CC1 | B1 bradykinin receptor (BDKRB1, Homo sapiens, UniProt P46663) | binding |  | 10 µM, added: [3H][des-Arg10]kallidin |  | inhibition | 16% |
| O=C(c1ccc(Cl)cc1)N1CCN2C(=O)N(OC(=O)N3CCOc4ccccc43)C(=O)C2C1 (stereo not drawn) | S-formylglutathione hydrolase (Homo sapiens, UniProt P10768) | MS-based ABPP | SW-620 conditioned medium | 10 µM, 1 h, 37 °C | baseline: compound over DMSO, lower = more inhibition | median protein ratio | 1.22 |

Repeated from above:
| Compound | tested on | test | test system | setting | scale | measurement | result |
| --- | --- | --- | --- | --- | --- | --- | --- |
| O=C(Nc1cnccc1Cl)N1CCN(Cc2ccc3c(c2)OC(F)(F)O3)CC1 | B1 bradykinin receptor (BDKRB1, Homo sapiens, UniProt P46663) | binding |  | 10 µM, added: [3H][des-Arg10]kallidin |  | inhibition | 16% |
| CN(C(=O)n1cnc(-c2ccc[n+]([O-])c2)c1)C1CCCCC1 | Carnitine O-palmitoyltransferase 1, liver isoform (Rattus norvegicus, UniProt P32198) | enzyme activity |  | 10 µM |  | inhibition | -12% |
